Assay results from different studies.
Compare with care: the assays were run in different laboratories.

Structure (SMILES) | test | system | setting | quantity | value
Cc1nc(-c2ccc(OCC(C)C)c(C#N)c2)sc1C(=O)O | – | healthy Chinese subjects, fasted | oral, 40 mg single dose | subjects with adverse events | 12.8%
Cc1nc2ccc(F)cc2n1-c1nc(N)c(F)c(Nc2ccc(C(F)(F)F)cc2)n1 | – | leiomyosarcoma patients | 300 mg, with: dacarbazine 1000 mg/m2 | subjects with thrombocytopenia | 52.4%
C[C@H]1O[C@@H](O[C@H]2[C@@H](O)C[C@H](O[C@H]3[C@@H](O)C[C@H](O[C@H]4CC[C@@]5(C)[C@H](CC[C@@H]6[C@@H]5C[C@@H](O)[C@]5(C)[C@@H](C7=CC(=O)OC7)CC[C@]65O)C4)O[C@@H]3C)O[C@@H]2C)C[C@H](O)[C@@H]1O | item: phlebitis | healthy men | oral, dose not given, 8 days, treatment-emergent, crossover trial | subjects with adverse event | 0%
C=CC(=O)NC1CCN(c2ncc3ncnc(Nc4ccc(Oc5ccc6c(c5)ncn6C)c(C)c4)c3n2)CC1 | – | healthy male volunteers | oral, 60 mg, 2 weeks | subjects discontinuing due to adverse events | 0%
COc1c(N2C[C@@H]3CCCN[C@@H]3C2)c(F)cc2c(=O)c(C(=O)O)cn(C3CC3)c12 | – | healthy volunteers | 400 mg | subjects feeling hot | 1%
Cn1cc(Nc2nc(N)nc(-c3cccc(-n4ccc5cc(C6CC6)cc(F)c5c4=O)c3CO)n2)cn1 | – | healthy subjects | oral, 300 mg tablet, fed high-fat breakfast | subjects with vomiting | 1%
Cc1c(Cl)c(C)[n+]([O-])c(Cl)c1-c1noc(-c2cc(O)c(O)c([N+](=O)[O-])c2)n1 | – | healthy Caucasian subjects | oral, 50 mg, 10 days | subjects with any serious TEAE | 0%
NCCONC(=O)[C@@H]1CC[C@@H]2CN1C(=O)N2OS(=O)(=O)O | – | healthy Chinese male subjects | intravenous, 2 g | subjects with serious adverse events | 0%
O=C(Nc1cnccc1Cl)N1CCN(Cc2ccc3c(c2)OC(F)(F)O3)CC1 | multiple ascending dose | elderly men and women | 100 mg, at least 1 treatment-emergent event | subjects with adverse events | 100%
CC(C)n1c(Nc2cccnc2)nc2cnc(Nc3ccc(N4CCN(C)CC4)cc3)nc21 | item: aspartate aminotransferase increased | healthy male subjects | oral, 100 mg, study, with: itraconazole | subjects with adverse event | 7.1%
O=C(O)CCC(=O)O.[2H]C([2H])([2H])Oc1cc(C)c2[nH]ccc2c1CN1CC[C@@H](C2CC2)C[C@H]1c1ccc(C(=O)O)cc1 | multiple ascending dose | healthy Chinese subjects | 300 mg once daily | subjects with reduced potassium TEAE | 0%
CC#CC(=O)N[C@H]1CCCN(c2c(F)cc(C(N)=O)c3[nH]c(C)c(C)c23)C1 | – | healthy volunteers | oral, 3 mg once daily, 14 days | subjects with adverse events | 50%
CC[C@H](C)[C@H](NC(=O)[C@H](Cc1ccccc1)NC(=O)[C@H](CCC(=O)O)NC(=O)[C@H](CCCCNC(=O)COCCOCCNC(=O)COCCOCCNC(=O)CC[C@H](NC(=O)CCCCCCCCCCCCCCCCC(=O)O)C(=O)O)NC(=O)[C@H](C)NC(=O)[C@H](C)NC(=O)[C@H](CCC(N)=O)NC(=O)CNC(=O)[C@H](CCC(=O)O)NC(=O)[C@H](CC(C)C)NC(=O)[C@H](Cc1ccc(O)cc1)NC(=O)[C@H](CO)NC(=O)[C@H](CO)NC(=O)[C@@H](NC(=O)[C@H](CC(=O)O)NC(=O)[C@H](CO)NC(=O)[C@@H](NC(=O)[C@H](Cc1ccccc1)NC(=O)[C@@H](NC(=O)CNC(=O)[C@H](CCC(=O)O)NC(=O)C(C)(C)NC(=O)[C@@H](N)Cc1cnc[nH]1)[C@@H](C)O)[C@@H](C)O)C(C)C)C(=O)N[C@@H](C)C(=O)N[C@@H](Cc1c[nH]c2ccccc12)C(=O)N[C@@H](CC(C)C)C(=O)N[C@H](C(=O)N[C@@H](CCCNC(=N)N)C(=O)NCC(=O)N[C@@H](CCCNC(=N)N)C(=O)NCC(=O)O)C(C)C | – | Caucasian subjects | 0.5 mg | subjects with mild AEs | 37.5%
CC(C)c1nc(N(C)S(C)(=O)=O)nc(-c2ccc(F)cc2)c1/C=C/[C@@H](O)C[C@@H](O)CC(=O)O | item: oral herpes | healthy men | dose not given, 8 days, treatment-emergent, crossover trial | subjects with adverse event | 4.5%
C[C@H]1CNCCCN1S(=O)(=O)c1cccc2cncc(F)c12 | – | healthy adult men | ocular, 1 drop per eye twice daily, 8 days, adverse drug reaction | subjects with eye irritation | 0%

Some of these lines once more:
Structure (SMILES) | test | system | setting | quantity | value
C[C@H]1CNCCCN1S(=O)(=O)c1cccc2cncc(F)c12 | – | healthy adult men | ocular, 1 drop per eye twice daily, 8 days, adverse drug reaction | subjects with eye irritation | 0%
C=CC(=O)NC1CCN(c2ncc3ncnc(Nc4ccc(Oc5ccc6c(c5)ncn6C)c(C)c4)c3n2)CC1 | – | healthy male volunteers | oral, 60 mg, 2 weeks | subjects discontinuing due to adverse events | 0%
